Published values collected from several papers.
Numbered parts are unrelated; each lists some results of a single study. Changes are numbered by the printed parent chain.

Sample 1 — technique: protein-binding microarray; molecule type: double-stranded DNA, one strand shown; medium: in vitro; tested at: 940 nM top; setting: 60-bp whole probe; together with: salmon DNA 0.4 mg/ml; reference: random background probes; reading: higher = stronger binding; endpoint: fitted relative affinity; constant ends, left off below: GCCTAGCAC … GTCTTGATTCGCTTGACGCTGCTG
Target: Interferon regulatory factor 5, full length, phosphomimetic (IRF5, Homo sapiens, UniProt Q13568-2, residues 1-514, S451D/S453D/S456D/S462D)
Strand = TGAGGACTGCTTCTCCTTTAGTGCTAG; result = -0.343 z-score
Strand = GACGGTATCATTTTCCTGACGTGCTAG; result = 2.89 z-score
Strand = TCATTTCTAATGTTTTTTACTGTGCTA; result = 0.432 z-score
Strand = TTATGACTGGGGTATCGGTTAGTGCTA; result = 3.03 z-score
Strand = GACGGTATCCTACTTCTGACGTGCTAG; result = 0.00786 z-score
Strand = TTAGGTTTCGACAATCGGTTAGTGCTA; result = 7.83 z-score
Strand = TTAGAACTGGGGTATCGATAAGTGCTA; result = 2.19 z-score
Strand = GAGGAGGGGCTGTTACTCTCGTGCTAG; result = 0.462 z-score
Strand = AGAAGATAAGCTGCAAGAAAGTGCTAG; result = -0.536 z-score
Strand = TCAGCTTTCCTGATGACACTGTGCTAG; result = -0.0963 z-score
Strand = TTAGGTTTCGTCTTTCGGTTAGTGCTA; result = 8 z-score
Strand = GGTCCTCTGGGCTGTTTGGCCGTGCTA; result = -0.515 z-score
Strand = GACGAGCTCAGTATCGAGACGTGCTAG; result = 2.38 z-score
Strand = GACGGTATAGGTTTCGGGACGTGCTAG; result = 3.13 z-score
Strand = CTTTCACCTCTCGGCCTGATGTGCTAG; result = 1.59 z-score

Sample 2 — technique: universal PBM; molecule type: double-stranded DNA, one strand shown; medium: in vitro; tested at: 600 nM; reading: higher = stronger binding; endpoint: E-score
Target: Sal-like protein 4, full length isoform A (SALL4, Homo sapiens, UniProt Q9UJQ4, residues 1-1053)
UniProt Q9UJQ4, sequence (whole entry, looked up): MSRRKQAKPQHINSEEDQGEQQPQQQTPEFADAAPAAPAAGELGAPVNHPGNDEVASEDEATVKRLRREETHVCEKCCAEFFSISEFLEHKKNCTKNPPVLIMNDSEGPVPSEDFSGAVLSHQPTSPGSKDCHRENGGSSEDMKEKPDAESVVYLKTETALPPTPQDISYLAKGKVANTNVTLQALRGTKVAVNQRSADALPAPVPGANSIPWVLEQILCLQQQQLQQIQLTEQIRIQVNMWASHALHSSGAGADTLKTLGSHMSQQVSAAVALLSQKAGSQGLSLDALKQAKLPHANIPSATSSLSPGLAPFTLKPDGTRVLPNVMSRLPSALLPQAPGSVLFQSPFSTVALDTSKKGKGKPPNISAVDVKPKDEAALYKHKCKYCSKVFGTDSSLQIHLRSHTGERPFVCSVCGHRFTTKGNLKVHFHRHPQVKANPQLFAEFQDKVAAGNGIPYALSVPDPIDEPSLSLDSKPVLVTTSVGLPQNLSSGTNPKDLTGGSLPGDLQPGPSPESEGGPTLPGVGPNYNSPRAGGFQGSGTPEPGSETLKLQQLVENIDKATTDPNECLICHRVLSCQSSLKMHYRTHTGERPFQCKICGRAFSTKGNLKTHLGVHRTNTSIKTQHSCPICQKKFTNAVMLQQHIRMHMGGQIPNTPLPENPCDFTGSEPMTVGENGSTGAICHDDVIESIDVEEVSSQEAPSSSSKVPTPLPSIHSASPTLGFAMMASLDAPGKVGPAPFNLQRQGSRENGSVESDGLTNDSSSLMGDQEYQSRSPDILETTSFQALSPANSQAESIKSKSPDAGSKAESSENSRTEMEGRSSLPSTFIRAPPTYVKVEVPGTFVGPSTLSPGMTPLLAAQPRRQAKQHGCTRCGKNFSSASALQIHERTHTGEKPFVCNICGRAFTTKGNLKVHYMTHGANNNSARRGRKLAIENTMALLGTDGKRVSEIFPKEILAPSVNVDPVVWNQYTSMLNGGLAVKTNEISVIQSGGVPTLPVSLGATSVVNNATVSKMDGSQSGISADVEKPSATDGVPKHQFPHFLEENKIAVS
Setting: 8-mer, flanks averaged, mean of replicates
Strand = CGCTTATC; result = -0.0344
Strand = ACGCGTAA; result = 0.0386
Strand = GCGGCGAA; result = -0.226
Strand = AAGCGACG; result = -0.219
Strand = CTCCAGAG; result = -0.224
Strand = CGTTGAGC; result = -0.203
Strand = AGGGCGCG; result = -0.291
Strand = GGCATGAC; result = -0.23
Strand = ATTTTATC; result = 0.361
Strand = GCGACTCC; result = -0.246
Strand = AAAAGATC; result = 0.091

Sample 3 — technique: RNA Bind-n-Seq; molecule type: RNA; medium: in vitro; tested at: not given; reference: input RNA pool; reading: higher = stronger binding; endpoint: bound/input enrichment
Target: RING finger protein unkempt homolog, zinc fingers 1-6, GST-SBP tag (UNK, Homo sapiens, UniProt Q9C0B0, residues 30-357)
Setting: RNA with constant flanks, human-mouse chimeric sites, ends assumed
Construct (chain): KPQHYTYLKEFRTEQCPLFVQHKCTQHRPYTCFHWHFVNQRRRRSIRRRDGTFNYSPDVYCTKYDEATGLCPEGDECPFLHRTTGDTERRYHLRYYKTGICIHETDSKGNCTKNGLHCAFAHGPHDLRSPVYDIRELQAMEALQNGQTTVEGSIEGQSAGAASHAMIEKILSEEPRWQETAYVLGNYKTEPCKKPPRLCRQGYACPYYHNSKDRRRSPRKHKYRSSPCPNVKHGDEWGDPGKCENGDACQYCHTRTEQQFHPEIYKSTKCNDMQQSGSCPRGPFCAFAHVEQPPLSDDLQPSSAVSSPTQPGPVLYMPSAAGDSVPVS
Strand = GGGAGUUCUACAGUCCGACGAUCAGAUUCCCCCUCCUGAGACCUCCUCCGAAGUUGGAGUCUCUUAUAGAUGCCUCAUCCCCUGUUAGCGUUUUAGUUUGGACCACCCAGCCUUGGACAAUUCCAGCCAACCAGGCAAUUUGCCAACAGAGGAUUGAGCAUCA; result = 2.19 ratio
Strand = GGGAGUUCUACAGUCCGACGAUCGCACUUGGGAAUGUAAUCAGCGCCUUGGGGGACAAGAGCAAGAGGGCCACCCAUGUCCCUUACAGAGACUCUAAGCUGACAAGACUCUUGCAGGAUUCCCUUGGGGGUAACAGCCAAACCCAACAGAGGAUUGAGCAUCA; result = 0.137 ratio
Strand = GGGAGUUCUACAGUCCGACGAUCAUUCCGAUUAUGGACACCGGUGAAAACCCAGAGGUGCCCUUCCCUCGGGACAUGAUUGACUUAGAGGCCAAUUUUGAGAAGAUUGAAAAUGAACUGAAGGAAAUCAACACAAACCAGGAACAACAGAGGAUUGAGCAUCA; result = 0.115 ratio
Strand = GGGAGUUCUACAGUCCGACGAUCAGUGUGCAGGAAUUCAUGACCUUCACGAGUCAACUGAUUGUGGAACGCUCGGGGAAAGGCAGCAGAGCUUCUGUCAAAGAACAAGAGUAUCUGUGCCAUGUCUACGUCCGGAGCGACAGUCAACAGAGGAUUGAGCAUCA; result = 0.0509 ratio
Strand = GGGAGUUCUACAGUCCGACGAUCAACAGAUUGUCUUUAAGGUCAACGUAGGAGAAUGCUGGGGUGAUCAUUGUUGCCCAUAUAUAGUAAUACUGAGCUUUAAUGCUGUUCCAUGUUACAUCUUUCCUUCACUCCAGAAUUGUUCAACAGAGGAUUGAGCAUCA; result = 0.231 ratio
Strand = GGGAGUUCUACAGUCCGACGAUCAAAGAGAAACUAAAGCAACUAAUAGAGAAGAGGAUUGGGCAAAGAGAUUUCAUAGAGAAACUAGGAUUUAUUAGCAAAACAUGAGUUUAUUCCAGAGCGUCUCAGAAACCCCAGCCAAACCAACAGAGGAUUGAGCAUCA; result = 5.72 ratio

Sample 4 — technique: RNA Bind-n-Seq; molecule type: RNA; medium: in vitro; tested at: 365 nM; reference: no-protein control; reading: higher = stronger binding; endpoint: RBNS enrichment (R)
Target: RNA binding protein fox-1 homolog 2, RRM domain, GST-SBP tag (RBFOX2, Homo sapiens, UniProt O43251-10, residues 100-194)
Setting: natural RNA segment, single round, ends assumed
Strand = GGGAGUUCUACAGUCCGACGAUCAUUUUUUAAUUUAACUUUUUUUUAAAUAUUGGUAAUAGGUCGGCAACAGCAACUAUAGAAGUACAACUCAAUAGAUGGCAUUAAAACAUAUUGUAGUGUGGAUAUAUAUUUGGAAUUCUCGGGUGCCAA; result = 0.471
Strand = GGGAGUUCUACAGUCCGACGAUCUUUUCAUAAAUAUUUCUGUGGGCCAUUUUGCUUUGCUUGUUUGUGAAAAGAAUUGUCUCUAAUUAUUUGAACCUCUGAAGAAUUGUACACAAGGAGGAUCAGACUUUAAAUGGAAUUCUCGGGUGCCAA; result = 0.556
Strand = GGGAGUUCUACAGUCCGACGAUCCAGGCCCACUCAGGAUGCCCAUGCCCAGGGCAGCAGGCUUCUGGGGUUCAGAAUUGUAGCCUCAGCCUGUUUGACAAAGGUCUUGGGAACUCUGUGACUGCUUUGCCCACUGGAAUUCUCGGGUGCCAA; result = 1.37
Strand = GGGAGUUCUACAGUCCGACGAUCAGUGAGGCAUGUGCUGCACGUCCCUGUCGUACUUAGAGACCUGGCCGGUGCCCUGCGCGGGGCCUCCCCAGGACACACUGACGUAGAUUUGCUGUGUAGUCUUGGUGUGGUGGAAUUCUCGGGUGCCAA; result = 1.78
Strand = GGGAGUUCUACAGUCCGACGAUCUUAGGAUGUCACUCCCAGGGUAAAGACCUCUGAUCACAGCAGGAGCAGAGCUGUGCAGCCUGGAUGGUCAUUGUCCCCUAUUCUGUGUGACCACAGCAACCCUGGUCACAUGGAAUUCUCGGGUGCCAA; result = 0.697
Strand = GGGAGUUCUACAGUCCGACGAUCCCCUGUAUCCUAGUGAUAACUCCAGGUCUGUGAACCAUUCAAACAGCAUUCAUUUUGAGAAAAGCAACUUUAGUUUCAAGGAUAAUUUUAAGCUUCAAAAUUAAUCAUUUUGGAAUUCUCGGGUGCCAA; result = 1.62
Strand = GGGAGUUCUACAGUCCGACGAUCAAGCAGUCACAUAAGUGGGUACCUAUCCAGCCAUUCUCUUUUCAGAGCAUAUAAUACUAUCUUAGCCAAACUUGCCUUUGCUUCACUCAUCAUGCAGCCUUCUGGGUUGGUGGAAUUCUCGGGUGCCAA; result = 0.383

Sample 5 — technique: protein binding microarray; molecule type: double-stranded DNA, one strand shown; medium: in vitro; tested at: not given; reference: not given; reading: higher = stronger binding; endpoint: E-score
Target: Histone acetyltransferase KAT6A, both winged helices, GST fusion (KAT6A, Homo sapiens, UniProt Q92794, residues 1-181)
Setting: 8-mer, flanks averaged, mean of 2 arrays, mostly near background
Residues (chain): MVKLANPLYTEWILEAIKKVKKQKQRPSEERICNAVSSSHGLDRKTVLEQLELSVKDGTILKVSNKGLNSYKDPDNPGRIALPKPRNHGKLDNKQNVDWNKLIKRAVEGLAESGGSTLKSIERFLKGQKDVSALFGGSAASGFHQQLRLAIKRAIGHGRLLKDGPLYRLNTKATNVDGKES
Strand = GCATCCCC; result = 0.00628
Strand = CTCGCCCA; result = -0.0998
Strand = GCGCGTAC; result = 0.388
Strand = ATAATTTG; result = -0.0399
Strand = AGACATGC; result = 0.0272
Strand = CATCCTGC; result = -0.0973
Strand = CCGTACGA; result = 0.13
Strand = CGGATCTA; result = 0.0504
Strand = ACATGGGA; result = -0.0698
Strand = GGGTACAC; result = 0.0464
Strand = ATTGTCAG; result = -0.0199

Sample 6 — target: CCND2, cyclin fold, Cln2 fusion (human); technique: yeast growth competition, sequencing; medium: yeast; setting: weak parent motif; reference: not given; reading: higher = stronger binding; endpoint: normalised enrichment score
Starting sequence: WEE1 docking peptide (human); HKTFRKLRLFDTP
Change = F4D; result = -0.0694
Change = R5A L7A; result = 0.293
Change = P13Q; result = -0.318
Change = R8S; result = 0.351
Change = R5G; result = -0.217
Change = T3C; result = -0.361
Change = D11S; result = -0.251
Change = R5K; result = -0.198
Change = K2E; result = 0.307
Change = F10D; result = -0.566
Change = T3R; result = -0.161
Change = R5V; result = -0.567
Change = P13M; result = 0.652
Change = L9W; result = -0.404
Change = K2C; result = -0.279
Change = H1R; result = 0.75
Change = R8P; result = -0.118

Sample 7 — technique: protein-binding microarray; molecule type: hairpin DNA; medium: in vitro; tested at: not given; reference: not given; reading: higher = stronger binding; endpoint: median fluorescence
Target: Cyclic AMP-dependent transcription factor ATF-1, full length (ATF1, Homo sapiens, UniProt P18846, residues 1-271)
Setting: whole hairpin DNA, median over replicate spots
Target sequence (chain): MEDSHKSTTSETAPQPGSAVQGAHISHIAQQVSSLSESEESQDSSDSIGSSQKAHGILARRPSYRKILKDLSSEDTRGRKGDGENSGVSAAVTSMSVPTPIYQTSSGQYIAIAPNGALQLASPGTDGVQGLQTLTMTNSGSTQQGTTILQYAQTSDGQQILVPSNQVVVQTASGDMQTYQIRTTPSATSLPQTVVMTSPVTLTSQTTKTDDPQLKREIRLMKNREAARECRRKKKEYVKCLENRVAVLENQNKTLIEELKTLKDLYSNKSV
Strand = GAGGCCGACGACTTCGTGCCTCCTGGCACGAAGTCGTCGGCCTCACACTC (5mC at 9 15 29 35); result = 3170 a.u.
Strand = GAGGCCGGATGACGTCCGCCTCCTGGCGGACGTCATCCGGCCTCACACTC (5mC at 17); result = 7690 a.u.
Strand = GAGGCCGACGCCGTCGTGCCTCCTGGCACGACGGCGTCGGCCTCACACTC (5mC at 9 11 15 29 35); result = 3680 a.u.
Strand = GAGGCCGGCTGACGTAAGCCTCCTGGCTTACGTCAGCCGGCCTCACACTC; result = 8190 a.u.
Strand = GAGGCCGGATGACGTCGGCCTCCTGGCCGACGTCATCCGGCCTCACACTC (5mC at 16); result = 7450 a.u.
Strand = GAGGCCGGATGCCGTCAGCCTCCTGGCTGACGGCATCCGGCCTCACACTC; result = 3650 a.u.
Strand = GAGGCCGGCTGCGGTCAGCCTCCTGGCTGACCGCAGCCGGCCTCACACTC; result = 3520 a.u.
Strand = GAGGCCGGATGACGTCAGCCTCCTGGCTGACGTCATCCGGCCTCACACTC; result = 17000 a.u.
Strand = GAGGCCGGCTGATGTCAGCCTCCTGGCTGACATCAGCCGGCCTCACACTC; result = 3530 a.u.
Strand = GAGGCCGGCTGACGCCAGCCTCCTGGCTGGCGTCAGCCGGCCTCACACTC (5mC at 15); result = 6870 a.u.
Strand = GAGGCCCGCTGACGTCAGCCTCCTGGCTGACGTCAGCGGGCCTCACACTC (5mC at 7 37); result = 10600 a.u.
Strand = GAGGCCGACGACGCCGTGCCTCCTGGCACGGCGTCGTCGGCCTCACACTC (5mC at 9 15 29 35); result = 3940 a.u.
Strand = GAGGCCGGCTGACGCGAGCCTCCTGGCTCGCGTCAGCCGGCCTCACACTC (5mC at 29); result = 4100 a.u.
Strand = GAGGCCGGATCGCGTCAGCCTCCTGGCTGACGCGATCCGGCCTCACACTC (5mC at 11 33); result = 5420 a.u.
Strand = GAGGCCGACGAGGTCGTGCCTCCTGGCACGACCTCGTCGGCCTCACACTC (5mC at 9 15 29 35); result = 3240 a.u.
Strand = GAGGCCGGCTTACGTCAGCCTCCTGGCTGACGTAAGCCGGCCTCACACTC; result = 6700 a.u.
